Assay results gathered from unrelated publications.
Every numbered part comes from another study and shows a few of its results, in no order. Positions count from the first letter of the parent shown.

Study 1
Target: RNA binding protein fox-1 homolog 2, RRM domain, GST-SBP tag (RBFOX2, Homo sapiens, UniProt O43251-10, residues 100-194)
Technique: RNA Bind-n-Seq
Form: RNA
Medium: in vitro
Concentration: 365 nM
Setting: natural RNA segment, single round, ends assumed
Reference: no-protein control
Direction: higher = stronger binding
Endpoint: RBNS enrichment (R)
All sequences stand within: GGGAGUUCUACAGUCCGACGAUC … UGGAAUUCUCGGGUGCCAA
Construct (chain): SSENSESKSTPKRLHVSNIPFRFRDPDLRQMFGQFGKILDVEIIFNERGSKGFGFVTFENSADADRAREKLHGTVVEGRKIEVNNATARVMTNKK
Sequence = AACUGGCUCCUGGUCUCUAGCCUGUGACCGGCUUGCUUAAUGUCCUCAGAACCUGACAGGUAUGUUCAAAACUGUCAGUCUGUUUGUGCCUUAAAAGGGUGAGAAGGGCG; result = 1.04
Sequence = CUGGUUUGACUGUGGAUUAUUUCCUGGGUAUUAGUGGGACCCAACAGCACAUUGCUAUUAAUAGUAUGGAAAUAAUGGUCCCUCUGUUUCAUUGAAUUGCUGAAGUAAUG; result = 0.535
Sequence = UGUCUUAGAACCCUCAUUGCUCAGACCUGAAGGCUACUUCUAGGAGCAUGAAGUUUGAGUUUUGUGUUUUUCCAAAGGAUACUUCCUUGGCCCUUUUUCUUUAUUGACUA; result = 0.348
Sequence = AGCCAGACCUCUGGGUUCCCAGGAAAUUAUCUUCCAGUUGAAUGACCAUUUACUUGAUACAAAUUGUACCUUUCUGUUUUUCUAGUCAGGUUGGUGGCCUGCAGGGACGC; result = 0.71
Sequence = AAUUCAACGGAUAUAUAUUUAUCAAUGUAGACUUCUCUGUGAAGUCAAGGUUUAUUUUCACAUGAGUCCAGCUUGCAGCAAGUAAUCUUCAAAUAUUCCAGUAAGUUUUG; result = 0.611
Sequence = CACAUUUGUACAUAUAUCUAAUGUUUUCAAGUGCCUUACUUGUUUAAACUCUGACUUCAAAGGUUUUUGGGGAAAGAUAGGUUUACCUCACAGUUAUGUUUCCAUUGUAA; result = 0.613
Sequence = AGAAAAUCUCAGUUUUGAUGAUUACGUUGCUUUUUUGUCCAGUAGUUUGGUUUAUAUACAUAAAUAUUCUUUGCACUACACAAAUGGUAACAUUUUAAAGACUAAUAUUG; result = 0.401
Sequence = AUUGCCAGUGUCUUUCUUUGGUGCCUUUCCUGUUCAGCAUUCUUAGCCUGUGGCAGUAAAGAGAAACUUUGUGCUACAUGACGACAAAGCUGCUAAAUCUCCUAUUUUUU; result = 1.28
Sequence = AGAUAUCCGUCCAUUUUCAUCUCUUAAUUGUAGUCAAAAGUAUGACUUGAGAGUGUUGCUCUGGUAUUCUGGGUUCUGAAGUCUGGUAUUCUGGUAUUCUGGGUUCAAAA; result = 0.423
Sequence = UGUGCACGUGCACACAUGUGCACGUUUGUAUGUAUGGAAAUAAACUUAUAAAUGGGGACGUAUUGGAGAAGGAAAUACAUAGACCUACAACUUUGAGCAAAUAGCAGUGA; result = 0.999
Sequence = CGCCUGACAUUUUACGGGAUCAAAGUGGGUCUGUGGCAUUGCUGCUUCGUGAAUGUGUGUGGACUCUAGUUUCCGCAAAACAACGCAACACAAAACCAAGCAAGCAAAAC; result = 0.3
Sequence = UGAUCAUGUACCUUUUCAAUAAGGGGAGAUAGUAUCUUUAAAGUCAAUGUCUAGCCAAGAGUUUAGUUAAUGAAGAAUUAAACUGCACUGUUGAUCGGUGCUUUCUGUAA; result = 0.386

Study 2
Target: Phosphate system positive regulatory protein PHO4, full length, GST-tagged (PHO4, Saccharomyces cerevisiae, UniProt P07270, residues 1-312)
Technique: competition protein-binding microarray
Form: double-stranded DNA, one strand shown
Medium: in vitro
Concentration: 2 µM
Setting: whole 60-bp probe, lowest competitor level
With: Cbf1 competitor, 0.05 µM
Direction: higher = stronger binding
Endpoint: fluorescence intensity
All sequences stand within: … GTCTTGATTCGCTTGACGCTGCTG
Target sequence (chain): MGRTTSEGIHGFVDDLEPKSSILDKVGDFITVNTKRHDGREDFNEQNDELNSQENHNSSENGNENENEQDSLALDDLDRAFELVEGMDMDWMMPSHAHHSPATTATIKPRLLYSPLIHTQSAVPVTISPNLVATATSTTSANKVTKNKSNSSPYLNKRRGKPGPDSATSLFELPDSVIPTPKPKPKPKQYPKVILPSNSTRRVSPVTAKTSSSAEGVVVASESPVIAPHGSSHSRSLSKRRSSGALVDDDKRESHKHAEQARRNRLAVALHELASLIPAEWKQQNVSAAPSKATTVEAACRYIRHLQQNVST
Sequence = CGGGGTTAAGTTTGTCACATAACTTGCTTGCAGCAG; result = 3670 a.u.
Sequence = TAAATTAGTATACTGCCCGATCAAACCATCTAGTTA; result = 3050 a.u.
Sequence = CGTTATTGAAAATCTCACGTGATGGTATCCACTAAT; result = 14600 a.u.
Sequence = ATAGTACAAATCCGTCACATGATGATATTTGATTTT; result = 8020 a.u.
Sequence = GTTGAAACTGTCAACATCGTGTAGGACATTGGATAA; result = 9100 a.u.
Sequence = AAATTACTAAGTTTTCACGTGCATTACCCCGTATGA; result = 16100 a.u.
Sequence = CGGGGTTAAGTTTGCATTGTGGGTGGCTTGCAGCAG; result = 6190 a.u.
Sequence = CTTTCCCGATCTTGTCACACAACTTTAGCACATTTG; result = 4530 a.u.
Sequence = CAATGGGTAAGCAGAGGCGTGCGATCCCTGTGTGGT; result = 10500 a.u.
Sequence = CTAACGAAGGTTTGTGATGTGGGTGACAAGCCAAGT; result = 4160 a.u.
Sequence = CTTCTGTAAATTTGCAGTGTGGGTGGACGCGCCCCG; result = 5050 a.u.
Sequence = AAATTACTAAGTTTTCACGTGACATACCCCGTATGA; result = 12700 a.u.
Sequence = AAAGCGGTAATTTGAACCGTGGGTGCAGATATCTAT; result = 7250 a.u.
Sequence = AAATTACTAAGTTGCACCGTGGGTGACGCCGTATGA; result = 8020 a.u.
Sequence = AAATTACTAAGTTGTTTCGTGGGTGACGCCGTATGA; result = 4560 a.u.
Sequence = CTAACGAAGGTTTGTCACCAGACTTACAAGCCAAGT; result = 2870 a.u.
Sequence = TACCTAACCCATTTGCACGTGTCGGTAATAAGAAAA; result = 17400 a.u.
Sequence = GAACAGGATCTCCGCCATGTGAATATTTATGCATGA; result = 6070 a.u.
Sequence = CTTAGAAGGCCGGCCCGCATGATTCAGAAGCAGACC; result = 5140 a.u.
Sequence = CATACCCAACCTTGTCACTGAACTTAAGATATTTGT; result = 3890 a.u.
Sequence = AATATTATTAAAAATTGCCGCTGTCATACTGTACGA; result = 3570 a.u.
Sequence = ATTTTCCTCAATCTGCTCGTGTAAGTGTCGGCCCGG; result = 7170 a.u.
Sequence = GTCTTGTCTCATTGTTGCGTGGGTGTCCCCACTTCA; result = 7340 a.u.
Sequence = GAAAGCATATCATATCACATGTACAGATTGAGCATA; result = 8590 a.u.

Study 3
Target: CCNB2, cyclin fold, Cln2 fusion (human)
Technique: yeast growth competition, sequencing
Medium: yeast
Setting: weak parent motif
Reference: not given
Direction: higher = stronger binding
Endpoint: normalised enrichment score
Starting sequence: RB1 docking peptide (human); PKPLKKLRFDIEG; partner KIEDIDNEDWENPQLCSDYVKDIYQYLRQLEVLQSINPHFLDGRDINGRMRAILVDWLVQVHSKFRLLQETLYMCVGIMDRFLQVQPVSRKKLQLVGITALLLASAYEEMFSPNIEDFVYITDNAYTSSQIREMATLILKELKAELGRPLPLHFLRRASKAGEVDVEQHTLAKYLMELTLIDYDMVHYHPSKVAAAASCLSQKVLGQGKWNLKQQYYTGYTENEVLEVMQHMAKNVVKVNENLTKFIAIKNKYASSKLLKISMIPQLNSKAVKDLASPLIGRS
Variant = D10S; result = -0.321
Variant = I11F; result = 0.326
Variant = D10H; result = 0.629
Variant = E12W; result = 0.567
Variant = R8N; result = -0.153
Variant = P3R; result = 0.667
Variant = K2N; result = 0.654
Variant = K5V; result = -0.178
Variant = F9M; result = 0.366
Variant = G13T; result = -0.184
Variant = R8I; result = 0.157
Variant = L7V; result = 0.268
Variant = P1Y; result = 0.318
Variant = K6R; result = 0.195
Variant = F9C; result = 0.0801
Variant = L7C; result = 0.427
Variant = K6C; result = 0.36

Study 4
Target: ABI1, truncated, D143A, DHFR fusion (Arabidopsis thaliana)
Technique: DHFR PCA, deep sequencing
Medium: yeast
Setting: methotrexate growth selection, single substitutions
With: (+)-ABA 0.0091 µM
Reference: wild-type fitted maximum
Direction: higher = stronger binding
Endpoint: relative binding score
Starting sequence: PYL1, truncated, DHFR fusion (Arabidopsis thaliana); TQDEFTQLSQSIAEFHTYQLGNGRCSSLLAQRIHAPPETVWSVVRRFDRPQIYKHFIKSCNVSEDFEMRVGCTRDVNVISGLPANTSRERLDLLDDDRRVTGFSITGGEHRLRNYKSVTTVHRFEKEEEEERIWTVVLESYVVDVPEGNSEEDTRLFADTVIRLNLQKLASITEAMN
Variant = V143K; result = -8.54%
Variant = R88L; result = 9.93%
Variant = N77P; result = -7.52%
Variant = R90I; result = -8.16%
Variant = N77Q; result = 62.6%
Variant = E14C; result = 0.455%
Variant = M68P; result = 0.833%
Variant = G102C; result = -5.92%
Variant = R49E; result = 25%
Variant = E131S; result = 49%
Variant = W41C; result = -2.01%
Variant = T73V; result = 39.7%
Variant = N165D; result = 9.91%
Variant = D97L; result = -2.64%
Variant = L94Y; result = 4.72%
Variant = A170P; result = -4.06%
Variant = E67A; result = 8.09%
Variant = G108L; result = -4.88%
Variant = Q10K; result = 38.9%

Study 5
Target: RING finger protein unkempt homolog, zinc fingers 1-6, GST-SBP tag (UNK, Homo sapiens, UniProt Q9C0B0, residues 30-357)
Technique: RNA Bind-n-Seq
Form: RNA
Medium: in vitro
Concentration: not given
Setting: RNA with constant flanks, human and mouse sites, ends assumed
Reference: input RNA pool
Direction: higher = stronger binding
Endpoint: bound/input enrichment
All sequences stand within: GGGAGUUCUACAGUCCGACGAUC … CAACAGAGGAUUGAGCAUCA
Construct (chain): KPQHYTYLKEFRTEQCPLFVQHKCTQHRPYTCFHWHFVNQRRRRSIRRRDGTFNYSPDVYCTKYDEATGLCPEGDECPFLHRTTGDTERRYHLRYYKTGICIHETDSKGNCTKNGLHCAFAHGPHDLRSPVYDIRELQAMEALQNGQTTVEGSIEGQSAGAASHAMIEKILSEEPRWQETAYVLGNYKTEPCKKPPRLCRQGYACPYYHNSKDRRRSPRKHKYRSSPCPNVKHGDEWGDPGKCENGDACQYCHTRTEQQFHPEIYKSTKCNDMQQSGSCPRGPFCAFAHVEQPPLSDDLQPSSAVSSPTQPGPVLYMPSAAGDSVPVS
Sequence = AGUGACCAGCGGUUUAGACGGGUUGCAAAGGACCCGAGAUUUUGGGAAAUGCCAGAAAAGGAUCGAAAAGUCAAAAUUGACAAGAGAUUUCGAGCCAUGUUUCAUGACAAGAAGUUCAAG; result = 0.164 ratio
Sequence = AGGUUGGGUCAUGACCCCUACAGGUUAGGCCAUGAUGCUUACAGGUUAGGACAAGACCCUUAUAGAUUAGGCCAUGAUCCCUACAGACUAACUCCGGAUCCCUAUAGGGUAUCACCUAGG; result = 13.5 ratio
Sequence = AGAAAAAUCAAACACUCCUUUAUAAUCUUUUUGACAUUUCUCAAUCUGCACAGACACCAGUAGCAGUUAUUGGACUUACAUGUAGAUUGGAUAUUUUGGAACUCUUAGAAAAGAGAGUGA; result = 0.384 ratio
Sequence = UAUAUGUAUGUUUUCAUUCCUGUUUUGUACGAGUGCCUCAUUUUGUAGUCAUGAAAGUAACAUAGUACCUUAAAUAAAAAUGUAAUGACUAAUCUAAGGUCUAGGAAUAACUAUUGUAGA; result = 1.3 ratio
Sequence = CUUGUAUUUCCUCCUUCUGUUGCUCUCUUUCAUUCACACACUCUCAGUUUCUCAUAUUUGUAGCUCAUUUAUUUGGUUAUUUCCUAAGAAUAUUGAAAGUGAAGCAACUAUGUGACUGUA; result = 0.166 ratio
Sequence = AUCACACGAGAACUGAGCAUUUCCAAACACUUGGCUCAAAACCUUAUUGAUGAUGGUCCUGUAAGACCUUCUGUAUGGAAAAAGCAUGGUGUUGUAAAUACACUUAGCUCCUCUCUUCCU; result = 0.03 ratio

Some of these lines once more (study 2):
Sequence = CGGGGTTAAGTTTGTCACATAACTTGCTTGCAGCAG; result = 3670 a.u.
Sequence = GAACAGGATCTCCGCCATGTGAATATTTATGCATGA; result = 6070 a.u.
Sequence = TACCTAACCCATTTGCACGTGTCGGTAATAAGAAAA; result = 17400 a.u.
Sequence = GTCTTGTCTCATTGTTGCGTGGGTGTCCCCACTTCA; result = 7340 a.u.
Sequence = ATAGTACAAATCCGTCACATGATGATATTTGATTTT; result = 8020 a.u.
Sequence = CTAACGAAGGTTTGTCACCAGACTTACAAGCCAAGT; result = 2870 a.u.
